# Published values gathered from unrelated publications.
# Compare with care: the assays were run in different laboratories.
Compound,tested on,assay,test system,conditions,how to read,quantity,value
C=CC(=O)Nc1cccc(Cn2ncc3cnc(Nc4cnn(CCOC)c4)nc32)c1,LCK human,"binding, KINOMEscan",,100 nM,lower = stronger binding,percent of control,95%
C=C(NC(=O)c1csc(-c2nc3c(cc2O)-c2nc(cs2)C(=O)NC(C(C)O)C(=O)NC(=C(C)OC)c2nc(cs2)C(=O)NC2c4nc(cs4)C(=O)NC(COC(=O)c4c5c6c(cccc6n4O)COC(=O)C(OC4CC(C)(O)C(N(C)C)C(C)O4)C2OC5)c2nc-3cs2)n1)C(N)=O (centres unmarked),Staphylococcus aureus,broth microdilution,methicillin-resistant isolates,,,MIC90,0.0312 µg/mL
Nc1ncc(-c2cc(-c3cnn(CC(F)(F)F)c3)ncc2F)nc1C(=O)NC1CNCC(F)C1 (centres unmarked),EPHA4,KINOMEscan,,1 µM,relative to: DMSO control,remaining binding,94%
COC1CN([C@H]2CC[C@H]([C@@]3(C)Oc4c(Cl)cc(C(=O)NCc5c(SC)cc(C)[nH]c5=O)c(C)c4O3)CC2)C1,,"RNA-seq, refers to: TFPI2","human, whole blood","dose not given, 24 h",relative to: pretreatment baseline,log2 fold change,4.74
CN1CCCNC(=O)c2cccc(c2)C(=O)NCCCN(C)CCCNc2cccc3c2C(=O)c2cccc(c2C3=O)NCCC1,SAS,"RNA-Seq, refers to: LINC00862 mRNA",,"1 µM, 6 h",relative to: untreated cells,log2 fold change,2.95
CCN(CC)CC(=O)Nc1cccc(-n2cc(-c3ccc4ccc(-c5cn(-c6cccc(NC(=O)CN(CC)CC)c6)nn5)cc4c3)nn2)c1,RCC4,"PCR angiogenesis array, refers to: EDN1",,"5 x IC50, 4 h, normoxia",relative to: untreated,fold regulation,-1.68
Cc1ncsc1-c1ccc(C(C)NC(=O)C2CC(O)CN2C(=O)C(NC(=O)CCCCCCCCCCN2CCCC(Nc3ncc(Cl)c(Nc4ccccc4S(=O)(=O)C(C)C)n3)C2)C(C)(C)C)cc1 (centres unmarked),22Rv1,"RNA-seq, refers to: ZNF786 mRNA",,concentration not given,relative to: DMSO,log2 fold change,-2.19
CNS(=O)(=O)Nc1nccc(Cc2c(C)c3ccc(Oc4ncccc4F)cc3oc2=O)c1F,MHH-PREB-1,cell viability,,7 days,,IC50,> 1000 nM
